# Values quoted from earlier work that unrelated publications cite.
# Each line is one published result; not all experiments were run side by side. ± marks the error that the study gave.
# Sequence of UniProt P08908 (whole entry, looked up): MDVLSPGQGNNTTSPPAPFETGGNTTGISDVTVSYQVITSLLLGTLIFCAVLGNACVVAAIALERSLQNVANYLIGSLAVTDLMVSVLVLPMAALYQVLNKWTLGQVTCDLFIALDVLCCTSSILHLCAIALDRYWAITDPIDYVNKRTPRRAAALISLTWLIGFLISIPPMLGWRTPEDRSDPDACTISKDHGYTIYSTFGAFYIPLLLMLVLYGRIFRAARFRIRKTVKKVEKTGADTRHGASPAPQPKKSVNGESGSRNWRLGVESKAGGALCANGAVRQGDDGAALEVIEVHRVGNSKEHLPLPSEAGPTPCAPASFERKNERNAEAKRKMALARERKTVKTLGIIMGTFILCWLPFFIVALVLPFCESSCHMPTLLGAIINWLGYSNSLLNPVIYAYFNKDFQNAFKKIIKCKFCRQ
# Sequence of UniProt P16257 (whole entry, looked up): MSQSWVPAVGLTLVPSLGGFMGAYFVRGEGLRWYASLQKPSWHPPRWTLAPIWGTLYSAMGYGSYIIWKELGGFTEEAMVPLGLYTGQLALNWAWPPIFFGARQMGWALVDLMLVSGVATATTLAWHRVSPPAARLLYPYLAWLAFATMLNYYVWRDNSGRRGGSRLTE
Substance,target,test,test system,conditions,scale,measurement,result
c1cncc(N2CCCNCC2)c1,"human α4β2 nAChR, high-sensitivity",agonist,Xenopus oocytes,,,EC50,21 nM
tetrahydrofolate,"serine hydroxymethyltransferase, Escherichia coli",substrate,,,,Km,20 µM
C[C@]12CC[C@H]3[C@@H](CCC4=CC(=O)C=C[C@@]43O)[C@@H]1CCC2=O,oestrogen receptor beta,"binding, competition binding",,,,EC50,> 10000 nM
Ic1cncc(OC[C@@H]2CCN2)c1,GABA-A receptor (α4)3(β3)2,agonist,,(α4)3(β3)2 form,,EC50,~18000 nM
NC(=O)[C@@H]1CC[C@@H]2CN1C(=O)N2OS(=O)(=O)O,PBP3,,,highest tested 50 µM,,IC50,> 50000 nM
COc1ccc2c3c([nH]c2c1)[C@H](CC(C)C)N1C(=O)[C@H](CCC(=O)OC(C)(C)C)NC(=O)[C@@H]1C3,BCRP (human),"rosuvastatin efflux, inhibitor",EpiIntestinal tissue model,"3 µM, added: rosuvastatin",baseline: no inhibitor,efflux reduction,32.2 fold
CCC(C(=O)O)c1ccc2cc(OC)ccc2c1 (racemic),COX-2,enzyme activity,,"concentration not given, added: arachidonic acid 10 µM",,inhibition,inactive
O=C(N[C@H]1COC(=O)[C@@H](NC(=O)c2cccc(O)c2[O-])COC(=O)[C@@H](NC(=O)c2cccc(O)c2[O-])COC1=O)c1cccc(O)c1[O-].[Fe+3],Escherichia coli ferric siderophore transporters,substrate,,,,Km,~0.0001 µM
C=CCN(CC=C)CCc1c[nH]c2ccc(Br)cc12,"Translocator protein (Tspo, Rattus norvegicus, UniProt P16257)",,,,,Ki,> 10000 nM
CN1Cc2ccccc2[C@@H]2c3cccc4[nH]cc(c34)C[C@H]21,dopamine D1 receptor (bovine),agonist,retina,concentration not given,,intrinsic activity,68%
CCC(C)(c1ccc(O)cc1)c1ccc(O)cc1,human FXR alpha,"antagonist, Tox21 qHTS or literature",,concentration not given,,activity call,active
CCOC(=O)CC(SP(=O)(OC)OC)C(=O)OCC (stereo not drawn),acetylcholinesterase,"enzyme activity, inhibitor",thymus tissue,20 min,,IC30,100 nM
C#CCN(C)CCCOc1ccc(Cl)cc1Cl.Cl,"MAOA, rat","5-HT deamination, inhibitor","rat, liver, ex vivo","subcutaneous, 0.3 mg/kg",,inhibition,~60%
CCCCC/C=C\C/C=C\C/C=C\C/C=C\CCCC(=O)NC1CC1,"cannabinoid receptor 1 (human, recombinant)","cAMP production inhibition, agonist",,added: forskolin,,EC50,2 nM
c1cnc2cc3c(cc2n1)[C@@H]1CNC[C@H]3C1,α6β2* nicotinic receptor (rat),"dopamine release, agonist",striatal synaptosomes,,,EC50,7 nM
OCc1ccc(-c2nn(Cc3ccccc3)c3ccccc23)o1,"soluble guanylate cyclase, bovine","enzyme activity, activator",,without NO or CO,,EC50,~20000 nM
C=CCN(CC=C)CCc1c[nH]c2ccccc12,"5-hydroxytryptamine receptor 1A (HTR1A, Homo sapiens, UniProt P08908)",binding,cloned human receptor,added: [3H]8-OH-DPAT,,Ki,100 nM
CC[C@H](C)[C@H](NC(=O)[C@@H](CCCNC(=N)N)NC(=O)[C@H](CCCNC(=N)N)NC(=O)[C@@H]1CCCN1C(=O)[C@@H]1CCCN1C(=O)[C@H](CCCNC(=N)N)NC(=O)[C@@H]1CCCN1C(=O)[C@H](CCCNC(=N)N)NC(=O)[C@@H]1CCCN1C(=O)[C@H](CC(C)C)NC(=O)[C@H](Cc1ccc(O)cc1)NC(=O)[C@@H]1CCCN1C(=O)[C@@H]1CCCN1C(=O)[C@H](CCCCN)NC(=O)[C@H](CC(=O)O)NC(=O)[C@@H](N)C(C)C)C(=O)N[C@@H](Cc1ccc(O)cc1)C(=O)N[C@@H](CC(N)=O)C(=O)N[C@H](CCCNC(=N)N)C(N)=O,Escherichia coli BL21(DE3)RIL ribosome,fluorescence polarization,,,,Kd,90 ± 3 nM
5′-methylthioadenosine,Staphylococcus aureus MTAN,substrate,,first active site,,Km,0.1 µM
O=c1c(I)ccc2n1C[C@@H]1CNC[C@H]2C1,human α7 nAChR,agonist,Xenopus oocytes,,,EC50,1500 nM
CC(=O)N(O)CCC[C@@H]1NC(=O)CNC(=O)CNC(=O)CNC(=O)[C@H](CCCN(O)C(C)=O)NC(=O)[C@H](CCCN(O)C(C)=O)NC1=O.[Fe+3],Escherichia coli ferric siderophore transporters,,,,,Kd,~0.1 nM

# A few entries again:
Substance,target,test,test system,conditions,scale,measurement,result
C[C@]12CC[C@H]3[C@@H](CCC4=CC(=O)C=C[C@@]43O)[C@@H]1CCC2=O,oestrogen receptor beta,"binding, competition binding",,,,EC50,> 10000 nM
CN1Cc2ccccc2[C@@H]2c3cccc4[nH]cc(c34)C[C@H]21,dopamine D1 receptor (bovine),agonist,retina,concentration not given,,intrinsic activity,68%
NC(=O)[C@@H]1CC[C@@H]2CN1C(=O)N2OS(=O)(=O)O,PBP3,,,highest tested 50 µM,,IC50,> 50000 nM
